{"data": "Assay results collected from several papers", "note": "A part holds a random share of what one study measured."}
{"data": "Block 1", "target": "RNA binding protein fox-1 homolog 2, RRM domain, GST-SBP tag (RBFOX2, Homo sapiens, UniProt O43251-10, residues 100-194)", "technique": "RNA Bind-n-Seq", "form": "RNA", "medium": "in vitro", "tested at": "365 nM", "setting": "natural RNA segment, single round, ends assumed", "relative to": "no-protein control", "reading": "higher = stronger binding", "all sequences stand within": "GGGAGUUCUACAGUCCGACGAUC … UGGAAUUCUCGGGUGCCAA", "Residues (chain)": "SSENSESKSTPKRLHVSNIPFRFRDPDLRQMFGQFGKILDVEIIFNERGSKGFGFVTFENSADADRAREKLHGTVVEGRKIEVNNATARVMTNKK"}
{"Strand": "CCAAAGAGAAUCUAAUUUUUUCAGUGGGUGAACUCAUCAUUGCUGGAACUGAAACUACAACCAAUGUGCUCCGCUGGGCAAUUCUUUUCAUGGCCCUUUAUCCUAAUAUU", "RBNS enrichment (R)": 0.439}
{"Strand": "UGAUGAUACCUCACAUGUUGACCGGCUAUGUGAACUGCCUAUUUCCUAUGCUGGAGUUUUGAUUUUUAACUAAACGCAAAUCUGUAGAUUCUCUCCUCUCCCAUCCCAGA", "RBNS enrichment (R)": 0.716}
{"Strand": "ACCUGGGCCGCUCAAAUUCAUUCCAGGGAGGAGGCUCCACUGCAUUCUUUGGCUGUGCCCUGAGGGUGCCUGCUCCUUUGUACGGUAACAGUCAAUUUUGAGGUUUCUUU", "RBNS enrichment (R)": 0.786}
{"Strand": "UUGGUUUCUGGCGCUUUCAGAGACGUCUGAGGUUCUUUGCACAGAGACUCCUCAGAUGUGGGAACUCUGGUUCUUUCCGUGCUGUGUUCUGGAGAGAUCUCACGUGGAUG", "RBNS enrichment (R)": 0.522}
{"Strand": "UAGAGACAGGAACAUUGACUUGAACAUAUGUAUGUAAGAGUCCAGGCUCAUUCUGAGUUGAUGAAAAGUCUUGUUUGGACUUCUGCAGGGUUUGACUCCCUGGACACUCU", "RBNS enrichment (R)": 0.301}
{"Strand": "GUGCUCUUCUAAAUGGCCUGUGAGCCAGGCUGUGGGAACUCUAGCUGCUGUCAGCCCCUCCUGUAGGAGCUGGCCCUGCCCAGGCUCCUGACUUCCCUCAGGAAGUCUUU", "RBNS enrichment (R)": 0.159}
{"Strand": "GUGUGAGUGAGGGUAUGUGCACCUAAGUGUGUACAUGUGUGUAUGUUGUGAAAGUGUCUGUGCACAUGAAUGUUUGUGUGUGUGUGAACUCUUUCUUACUGCUGGAAGUC", "RBNS enrichment (R)": 6.32}
{"Strand": "CAGAAACCCCUGAUAAACUGAUCAGAUCUCAUGAGACUUAUUCACUGUCACGAGAAUAGCACGGGAAAGACUGGCCCCCAUGAUUCAAUUACCUCCCCCUGGGUCUGUCC", "RBNS enrichment (R)": 0.756}
{"Strand": "AAAAGGCAAGGGUUGAUCCCCGCAGCCCUUCUCUGAAUUCUCACUGCUGAUAUCUGAAUGAAGCAACAGAAGGCACGCAGUAACGCAGACGGGAACGGAAGCAGUUCCGC", "RBNS enrichment (R)": 0.426}
{"Strand": "GGGACCUUUUGUACUUUAUUUGAACUAUGAGUCUUUAAUUUUUCCUGAUGAUGGUGGCUGUAAUAUGUUGAGUUCAGUUUACUAAAGGUUUUACUAUUAUGGUUUGAAGU", "RBNS enrichment (R)": 1.04}
{"Strand": "CCCACCCAAUACCAUUUCUUACCCUCUAAUCCUACCUGAUCUUUAACAAAGCAUUAAUAAUUCUAAGGAUAAUCUCUAUUUUGUUGUGCUUUUUUGUAACUGUUUUAAAU", "RBNS enrichment (R)": 0.75}
{"Strand": "AUCAUAGCCCCCUGCCGCUCAGCCUUGUACAUAGACCUAUCCCUCCCUGCCCUGGUCCUCUUCCUGCCUCCUGUAAAUAUCUGUAUCUAGACCAGAAUAUUUUGUCCAAG", "RBNS enrichment (R)": 1.05}
{"data": "Block 2", "target": "Fragile X messenger ribonucleoprotein 1, C-terminal low-complexity region (Fmr1, Mus musculus, UniProt P35922)", "technique": "RNA Bind-n-Seq", "form": "RNA", "medium": "in vitro", "tested at": "200 nM", "setting": "whole 134-nt RNA, ends assumed", "together with": "150 mM LiCl", "relative to": "input library", "reading": "higher = stronger binding", "all molecules": "7-deaza-guanosine replaces G", "all sequences stand within": "GGGAGUUCUACAGUCCGACGAUC … UGGAAUUCUCGGGUGUCAAGG"}
{"Strand": "UUCUCUCAUUUCUUCUGAAAUACAGGGCAAAUUGGAUCAAGGCAGUUCAGAUGUGUAGCAAACCCAGAGAAUUUGCAUUGGCUUUAGCCA", "log2 enrichment": -1.59}
{"Strand": "UCCUGUGCUACACAUCGUAUGUACCGAAUCGGCCCCCCGGGCCCCCCGGGCCCCCCGGGGAAAGUAUUAUGUUACGCCGUUCGGAUCUGC", "log2 enrichment": -2.2}
{"Strand": "UCAAGUCCUGUGCUACACAUCGUAUGUACCGAAUCGGGAAGGGAAGGGGAAGGGGAAAGUAUUAUGUUACGCCGUUCGGAUCUGCACUUC", "log2 enrichment": -0.544}
{"Strand": "CAAGUCCUGUGCUACACAUCGUAUGUACCGAAUCGGAGGAAAAAGGUUUUUUUGGAAAGUAUUAUGUUACGCCGUUCGGAUCUGCACUUC", "log2 enrichment": -1.25}
{"Strand": "CCUGUGCUACACAUCGUAUGUACCGAAUCGGGUUUUUUGGGUUUUUUGGGGUUUUUUGGGGAAAGUAUUAUGUUACGCCGUUCGGAUCUG", "log2 enrichment": -0.759}
{"Strand": "UAACUUUAGAGGAGGAUCUGAUGGAUAUGGCAGUGGACGUGGAUUUGGGGAUGGCUAUAAUGGGUAUGGAGGACGACCUGGAGGUGGCAA", "log2 enrichment": 0.0802}
{"Strand": "GUCCUGUGCUACACAUCGUAUGUACCGAAUCGGUUUUUUGGUUUUUUGGGUUUUUUGGGAAAGUAUUAUGUUACGCCGUUCGGAUCUGCA", "log2 enrichment": -1.4}
{"data": "Block 3", "target": "Sal-like protein 4, full length isoform A (SALL4, Homo sapiens, UniProt Q9UJQ4, residues 1-1053)", "technique": "universal PBM", "form": "double-stranded DNA, one strand shown", "medium": "in vitro", "tested at": "600 nM", "setting": "8-mer, flanks averaged, mean of replicates", "reading": "higher = stronger binding", "UniProt Q9UJQ4, sequence (whole entry, looked up)": "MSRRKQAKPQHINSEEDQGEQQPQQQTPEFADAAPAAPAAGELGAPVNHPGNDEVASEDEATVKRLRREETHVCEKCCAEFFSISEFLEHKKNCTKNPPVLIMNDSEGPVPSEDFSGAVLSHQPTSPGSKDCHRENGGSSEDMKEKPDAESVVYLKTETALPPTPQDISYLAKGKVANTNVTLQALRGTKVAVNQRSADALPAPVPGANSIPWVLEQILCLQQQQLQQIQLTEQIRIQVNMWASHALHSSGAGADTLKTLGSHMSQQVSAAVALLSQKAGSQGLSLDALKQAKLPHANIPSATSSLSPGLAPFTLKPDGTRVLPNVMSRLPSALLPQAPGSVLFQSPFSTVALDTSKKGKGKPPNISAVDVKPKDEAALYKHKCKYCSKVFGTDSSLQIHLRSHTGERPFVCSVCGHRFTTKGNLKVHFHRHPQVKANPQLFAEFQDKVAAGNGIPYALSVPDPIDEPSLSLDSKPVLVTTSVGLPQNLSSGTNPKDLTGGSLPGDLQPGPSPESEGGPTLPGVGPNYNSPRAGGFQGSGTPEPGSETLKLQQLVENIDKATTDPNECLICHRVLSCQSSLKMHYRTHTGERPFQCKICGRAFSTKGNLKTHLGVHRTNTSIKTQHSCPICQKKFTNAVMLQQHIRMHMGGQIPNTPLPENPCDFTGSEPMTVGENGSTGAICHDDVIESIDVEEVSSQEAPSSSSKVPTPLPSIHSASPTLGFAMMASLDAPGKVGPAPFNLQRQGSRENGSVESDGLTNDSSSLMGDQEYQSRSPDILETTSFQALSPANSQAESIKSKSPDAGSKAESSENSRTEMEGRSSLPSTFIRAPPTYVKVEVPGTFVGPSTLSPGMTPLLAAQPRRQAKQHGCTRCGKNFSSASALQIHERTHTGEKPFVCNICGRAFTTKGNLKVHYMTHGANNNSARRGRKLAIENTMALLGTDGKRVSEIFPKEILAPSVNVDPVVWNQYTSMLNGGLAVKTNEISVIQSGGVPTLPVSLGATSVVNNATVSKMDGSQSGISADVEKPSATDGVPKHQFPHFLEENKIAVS"}
{"Strand": "CTGTAAAA", "E-score": 0.195}
{"Strand": "CACCCTAA", "E-score": -0.0879}
{"Strand": "CCCAATAA", "E-score": 0.212}
{"Strand": "CACTTCCA", "E-score": 0.0869}
{"Strand": "AACAAGGC", "E-score": -0.0885}
{"Strand": "GACATGCC", "E-score": -0.0825}
{"Strand": "GAACAACA", "E-score": 0.00334}
{"Strand": "CTGGTGGA", "E-score": -0.216}
{"Strand": "ATCAACTG", "E-score": -0.00545}
{"Strand": "CACTCCCC", "E-score": -0.194}
{"Strand": "CCCTGCAC", "E-score": -0.337}
{"Strand": "CCTTTACA", "E-score": 0.0689}
{"Strand": "CAAAATGC", "E-score": 0.141}
{"Strand": "TACTCAGA", "E-score": 0.0471}
{"Strand": "ATTTATGA", "E-score": 0.433}
{"Strand": "GATCTACA", "E-score": 0.0769}
{"Strand": "ACATGTTC", "E-score": 0.119}
{"Strand": "CAAGTGAG", "E-score": -0.0995}
{"Strand": "AACTCGGC", "E-score": -0.12}
{"Strand": "AATGTGGA", "E-score": 0.252}
{"Strand": "AACAGGAC", "E-score": -0.131}
{"Strand": "GAATTATC", "E-score": 0.273}
{"Strand": "GGTTTGAC", "E-score": -0.016}
{"Strand": "CTTAGTAA", "E-score": 0.141}
{"Strand": "CGGCGTCA", "E-score": -0.227}
{"data": "Block 4", "target": "Prothrombin, mature alpha-thrombin (F2, Homo sapiens, UniProt P00734)", "technique": "aptamer microarray, sandwich", "form": "DNA with 2'F-ANA", "medium": "in vitro", "tested at": "200 nM", "setting": "whole 15-mer aptamer, many near background", "together with": "Cy3 exosite-II aptamer, 400 nM", "reading": "higher = stronger binding", "strand": "GGTTGGTGTGGTTGG"}
{"Modification": "2'F-ANA at 1 3 10 11 12 15", "mean fluorescence intensity [a.u.]": 108}
{"Modification": "2'F-ANA at 1 2 3 4 5 6 7 8 13 15", "mean fluorescence intensity [a.u.]": 53}
{"Modification": "2'F-ANA at 1 2 3 4 6 7 9 10 12 14", "mean fluorescence intensity [a.u.]": 51.8}
{"Modification": "2'F-ANA at 1 3 4 5 7 9 10", "mean fluorescence intensity [a.u.]": 48.3}
{"Modification": "2'F-ANA at 1 5 10 11 12 14", "mean fluorescence intensity [a.u.]": 47.2}
{"Modification": "2'F-ANA at 1 3 6 7 8 13 15", "mean fluorescence intensity [a.u.]": 224}
{"Modification": "2'F-ANA at 1 2 4 5 6 7 9 10 11", "mean fluorescence intensity [a.u.]": 76.5}
{"Modification": "2'F-ANA at 3 5 6 7 8 9 12 13 15", "mean fluorescence intensity [a.u.]": 169}
{"Modification": "2'F-ANA at 1 3 9 10 11 13 14 15", "mean fluorescence intensity [a.u.]": 62.1}
{"Modification": "2'F-ANA at 1 2 6 8 9 12 13 14", "mean fluorescence intensity [a.u.]": 60.9}
{"Modification": "2'F-ANA at 1 3 8 12 14 15", "mean fluorescence intensity [a.u.]": 143}
{"Modification": "2'F-ANA at 1 2 5 6 7 8 9 10 12 13 14", "mean fluorescence intensity [a.u.]": 84.4}
{"Modification": "2'F-ANA at 1 2 5 7 8 12 13 15", "mean fluorescence intensity [a.u.]": 80.2}
{"Modification": "2'F-ANA at 4 6 10 11 12 13 15", "mean fluorescence intensity [a.u.]": 75.3}
{"Modification": "2'F-ANA at 3 4 5 6 7 8 9 11 13 14 15", "mean fluorescence intensity [a.u.]": 52.5}
{"Modification": "2'F-ANA at 1 3 4 5 6 9 10 11 13", "mean fluorescence intensity [a.u.]": 53.4}
{"Modification": "2'F-ANA at 1 5 6 7 10 13", "mean fluorescence intensity [a.u.]": 56.5}
{"Modification": "2'F-ANA at 1 2 3 7 9 10 11 13 15", "mean fluorescence intensity [a.u.]": 71.9}
{"Modification": "2'F-ANA at 1 4 6 7 8 9 11 13", "mean fluorescence intensity [a.u.]": 98.2}
{"Modification": "2'F-ANA at 1 7 8 10", "mean fluorescence intensity [a.u.]": 57.1}
{"Modification": "2'F-ANA at 1 3 4 5 9 11 13 15", "mean fluorescence intensity [a.u.]": 58.6}
{"Modification": "2'F-ANA at 1 2 4 5 6 10 14 15", "mean fluorescence intensity [a.u.]": 46.6}
{"Modification": "2'F-ANA at 1 3 4 5 7 10 14", "mean fluorescence intensity [a.u.]": 171}
{"Modification": "2'F-ANA at 4 5 6 7 9 15", "mean fluorescence intensity [a.u.]": 82.1}
{"Modification": "2'F-ANA at 1 2 4 6 7 8 9 10 12 13 14", "mean fluorescence intensity [a.u.]": 49.5}
{"data": "Other studies, line by line", "technique": "cross-linking MS", "medium": "cell fractions"}
{"Molecule": "ALDH18A1 (Homo sapiens, UniProt P54886)", "partner": "DPYD (Homo sapiens, UniProt Q12882)", "together with": "DSSO", "cross-linked residues": "K424 to K888"}
{"Molecule": "NDUFS2 (Homo sapiens, UniProt O75306)", "partner": "NDUFA10 (Homo sapiens, UniProt O95299)", "together with": "DSSO", "cross-linked residues": "K437 to K277"}
{"Molecule": "SNW1 (Homo sapiens, UniProt Q13573)", "partner": "SNRNP40 (Homo sapiens, UniProt Q96DI7)", "together with": "DSSO", "cross-linked residues": "K170 to K349"}
{"Molecule": "DNAH6 (Homo sapiens, UniProt Q9C0G6)", "partner": "CAPN11 (Homo sapiens, UniProt Q9UMQ6)", "together with": "DMTMM", "cross-linked residues": "K2952 to E507"}
{"note": "Some of these lines once more (block 3):"}
{"Strand": "AACAAGGC", "E-score": -0.0885}
{"Strand": "GACATGCC", "E-score": -0.0825}
{"Strand": "GAACAACA", "E-score": 0.00334}
{"Strand": "CTGGTGGA", "E-score": -0.216}
